Assay results of several laboratories.
Several values in a cell are separate wells, animals, samples, runs or records.
Sequence of UniProt P42866 (whole entry, looked up): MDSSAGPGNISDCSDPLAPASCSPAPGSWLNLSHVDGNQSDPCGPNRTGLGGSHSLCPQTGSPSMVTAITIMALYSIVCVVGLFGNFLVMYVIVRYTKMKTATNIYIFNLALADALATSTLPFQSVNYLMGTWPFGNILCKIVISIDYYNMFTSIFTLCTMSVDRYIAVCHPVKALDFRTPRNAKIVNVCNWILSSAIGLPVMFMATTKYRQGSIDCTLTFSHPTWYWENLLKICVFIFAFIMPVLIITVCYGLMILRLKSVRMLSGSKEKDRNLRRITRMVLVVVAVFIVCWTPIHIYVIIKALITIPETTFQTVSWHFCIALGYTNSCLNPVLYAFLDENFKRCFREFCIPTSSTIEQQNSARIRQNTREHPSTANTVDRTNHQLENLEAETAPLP
Sequence of UniProt P09690 (whole entry, looked up): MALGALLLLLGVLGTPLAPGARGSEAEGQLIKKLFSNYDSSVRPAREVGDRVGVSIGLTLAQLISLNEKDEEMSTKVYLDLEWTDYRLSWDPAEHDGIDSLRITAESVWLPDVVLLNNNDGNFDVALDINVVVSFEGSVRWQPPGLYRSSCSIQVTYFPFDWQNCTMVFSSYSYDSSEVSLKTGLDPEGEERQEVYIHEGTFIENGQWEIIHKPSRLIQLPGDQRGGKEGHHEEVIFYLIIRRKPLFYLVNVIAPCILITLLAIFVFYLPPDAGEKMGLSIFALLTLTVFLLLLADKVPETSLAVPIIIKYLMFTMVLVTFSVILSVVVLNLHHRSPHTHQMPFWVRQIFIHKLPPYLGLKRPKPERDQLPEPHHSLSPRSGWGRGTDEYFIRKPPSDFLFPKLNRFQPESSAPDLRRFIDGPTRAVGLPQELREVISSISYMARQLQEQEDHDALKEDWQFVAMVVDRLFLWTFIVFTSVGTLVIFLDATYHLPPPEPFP
Sequence of UniProt Q13705 (whole entry, looked up): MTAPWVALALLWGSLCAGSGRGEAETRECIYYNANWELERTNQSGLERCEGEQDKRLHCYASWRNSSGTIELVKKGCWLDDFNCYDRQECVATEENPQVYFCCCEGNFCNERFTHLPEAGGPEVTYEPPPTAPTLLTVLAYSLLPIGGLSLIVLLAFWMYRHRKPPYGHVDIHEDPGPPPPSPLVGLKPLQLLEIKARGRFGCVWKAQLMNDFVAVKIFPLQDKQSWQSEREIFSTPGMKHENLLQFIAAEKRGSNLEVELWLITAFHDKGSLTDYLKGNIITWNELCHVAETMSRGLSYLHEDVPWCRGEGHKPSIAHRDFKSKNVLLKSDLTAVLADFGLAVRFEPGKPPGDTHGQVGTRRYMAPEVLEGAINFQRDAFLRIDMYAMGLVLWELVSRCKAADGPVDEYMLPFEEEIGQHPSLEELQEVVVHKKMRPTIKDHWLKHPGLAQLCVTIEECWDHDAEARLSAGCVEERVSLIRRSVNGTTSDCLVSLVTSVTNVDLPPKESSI
Sequence of UniProt Q09161 (whole entry, looked up): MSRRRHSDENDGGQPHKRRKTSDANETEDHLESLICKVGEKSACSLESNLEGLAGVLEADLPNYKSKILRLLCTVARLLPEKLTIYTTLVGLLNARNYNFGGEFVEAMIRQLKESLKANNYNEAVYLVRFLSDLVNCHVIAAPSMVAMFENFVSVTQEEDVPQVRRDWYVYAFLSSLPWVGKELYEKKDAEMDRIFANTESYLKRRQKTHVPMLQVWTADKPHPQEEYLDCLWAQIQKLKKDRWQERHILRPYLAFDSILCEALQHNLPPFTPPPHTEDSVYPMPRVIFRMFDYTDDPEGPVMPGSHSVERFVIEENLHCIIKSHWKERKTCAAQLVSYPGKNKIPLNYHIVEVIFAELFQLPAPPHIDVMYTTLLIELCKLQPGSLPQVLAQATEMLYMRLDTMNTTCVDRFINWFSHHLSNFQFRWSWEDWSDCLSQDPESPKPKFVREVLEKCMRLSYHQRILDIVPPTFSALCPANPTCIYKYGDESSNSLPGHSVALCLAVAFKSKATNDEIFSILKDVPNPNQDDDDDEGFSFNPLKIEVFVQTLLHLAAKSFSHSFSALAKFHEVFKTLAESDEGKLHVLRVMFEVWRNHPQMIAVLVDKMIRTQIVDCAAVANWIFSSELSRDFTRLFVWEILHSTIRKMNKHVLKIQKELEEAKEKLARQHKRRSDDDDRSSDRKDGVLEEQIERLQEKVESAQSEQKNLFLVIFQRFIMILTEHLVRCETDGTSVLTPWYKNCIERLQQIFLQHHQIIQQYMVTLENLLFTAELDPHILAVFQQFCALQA
Sequence of UniProt P70343 (whole entry, looked up): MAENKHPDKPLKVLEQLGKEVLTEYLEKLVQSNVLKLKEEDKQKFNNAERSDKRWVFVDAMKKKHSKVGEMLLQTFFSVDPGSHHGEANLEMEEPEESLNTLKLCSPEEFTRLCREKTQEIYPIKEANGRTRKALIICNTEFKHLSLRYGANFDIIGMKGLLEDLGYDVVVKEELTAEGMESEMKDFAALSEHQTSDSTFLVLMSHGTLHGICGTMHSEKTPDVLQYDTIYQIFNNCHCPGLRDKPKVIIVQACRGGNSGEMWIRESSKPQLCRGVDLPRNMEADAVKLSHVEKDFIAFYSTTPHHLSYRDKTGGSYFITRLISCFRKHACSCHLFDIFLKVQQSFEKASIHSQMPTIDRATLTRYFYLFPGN
Sequence of UniProt Q9UJ42 (whole entry, looked up): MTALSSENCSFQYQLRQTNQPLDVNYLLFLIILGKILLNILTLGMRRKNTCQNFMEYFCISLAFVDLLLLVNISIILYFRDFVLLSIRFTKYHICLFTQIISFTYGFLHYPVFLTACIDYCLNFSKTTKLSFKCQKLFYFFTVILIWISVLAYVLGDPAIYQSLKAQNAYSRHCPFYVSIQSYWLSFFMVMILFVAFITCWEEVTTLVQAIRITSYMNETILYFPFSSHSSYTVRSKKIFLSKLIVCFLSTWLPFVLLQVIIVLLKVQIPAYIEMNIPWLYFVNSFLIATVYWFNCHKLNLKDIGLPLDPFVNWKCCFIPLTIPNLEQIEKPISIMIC
Sequence of UniProt P43116 (whole entry, looked up): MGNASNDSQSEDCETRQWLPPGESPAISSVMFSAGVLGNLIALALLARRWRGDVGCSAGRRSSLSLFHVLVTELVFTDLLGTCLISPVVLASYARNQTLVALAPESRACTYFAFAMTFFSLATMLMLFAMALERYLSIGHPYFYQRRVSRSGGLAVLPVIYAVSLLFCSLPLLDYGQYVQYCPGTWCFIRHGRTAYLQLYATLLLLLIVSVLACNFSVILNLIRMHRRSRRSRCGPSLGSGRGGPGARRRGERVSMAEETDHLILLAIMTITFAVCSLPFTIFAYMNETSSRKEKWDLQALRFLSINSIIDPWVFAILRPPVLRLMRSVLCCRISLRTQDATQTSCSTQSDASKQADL
Sequence of UniProt P27448 (whole entry, looked up): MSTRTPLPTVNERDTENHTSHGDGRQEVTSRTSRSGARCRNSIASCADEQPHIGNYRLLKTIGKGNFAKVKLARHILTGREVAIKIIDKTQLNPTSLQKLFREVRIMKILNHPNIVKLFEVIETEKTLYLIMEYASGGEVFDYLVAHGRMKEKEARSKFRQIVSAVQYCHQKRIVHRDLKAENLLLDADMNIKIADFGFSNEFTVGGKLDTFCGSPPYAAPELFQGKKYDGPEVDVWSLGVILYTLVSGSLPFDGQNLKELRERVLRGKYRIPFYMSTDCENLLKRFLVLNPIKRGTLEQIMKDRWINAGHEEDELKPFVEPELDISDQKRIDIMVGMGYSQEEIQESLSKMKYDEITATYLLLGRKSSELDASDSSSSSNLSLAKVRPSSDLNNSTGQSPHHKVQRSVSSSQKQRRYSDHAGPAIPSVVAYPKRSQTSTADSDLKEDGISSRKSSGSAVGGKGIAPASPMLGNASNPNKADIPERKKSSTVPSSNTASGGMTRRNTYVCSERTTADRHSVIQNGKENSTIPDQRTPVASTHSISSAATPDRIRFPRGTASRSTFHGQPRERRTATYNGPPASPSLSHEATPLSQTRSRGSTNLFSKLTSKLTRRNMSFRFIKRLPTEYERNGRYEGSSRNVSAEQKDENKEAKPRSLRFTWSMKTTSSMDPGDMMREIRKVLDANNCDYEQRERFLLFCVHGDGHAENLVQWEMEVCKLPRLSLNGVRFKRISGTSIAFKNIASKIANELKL
Sequence of UniProt Q06187 (whole entry, looked up): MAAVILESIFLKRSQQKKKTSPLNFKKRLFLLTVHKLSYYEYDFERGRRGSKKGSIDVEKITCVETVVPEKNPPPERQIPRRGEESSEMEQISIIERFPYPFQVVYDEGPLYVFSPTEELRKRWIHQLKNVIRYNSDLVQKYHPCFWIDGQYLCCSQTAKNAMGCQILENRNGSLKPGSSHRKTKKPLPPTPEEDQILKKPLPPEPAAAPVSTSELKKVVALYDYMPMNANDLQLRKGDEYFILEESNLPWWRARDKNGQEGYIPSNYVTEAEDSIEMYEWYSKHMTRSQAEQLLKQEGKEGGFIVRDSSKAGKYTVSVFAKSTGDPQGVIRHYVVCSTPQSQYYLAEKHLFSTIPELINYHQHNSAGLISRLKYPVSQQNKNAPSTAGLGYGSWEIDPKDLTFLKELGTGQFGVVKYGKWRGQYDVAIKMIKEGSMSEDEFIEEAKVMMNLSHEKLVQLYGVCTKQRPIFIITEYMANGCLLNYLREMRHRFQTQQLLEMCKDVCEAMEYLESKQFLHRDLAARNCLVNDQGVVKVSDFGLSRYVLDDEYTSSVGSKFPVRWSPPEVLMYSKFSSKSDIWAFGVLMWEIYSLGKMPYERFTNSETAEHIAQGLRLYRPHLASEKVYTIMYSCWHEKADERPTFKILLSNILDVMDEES
Sequence of UniProt P28074 (whole entry, looked up): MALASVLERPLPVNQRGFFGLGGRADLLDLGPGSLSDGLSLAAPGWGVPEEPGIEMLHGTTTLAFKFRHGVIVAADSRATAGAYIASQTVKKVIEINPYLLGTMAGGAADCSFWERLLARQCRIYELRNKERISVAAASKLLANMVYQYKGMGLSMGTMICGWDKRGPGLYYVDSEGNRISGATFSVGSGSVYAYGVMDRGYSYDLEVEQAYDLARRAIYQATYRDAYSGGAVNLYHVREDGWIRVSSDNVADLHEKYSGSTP

COc1cccc(-c2nsc(=O)o2)c1
kobs/[I] (Proteasome Macropain subunit MB1 (PSMB5, Homo sapiens, UniProt P28074); enzyme inactivation, inhibitor; human PA28-activated proteasome): 14.8 M⁻¹ s⁻¹

NCCOC(=O)[C@@H]1CS[C@H]2CS[C@H](CS)N21
activity (sfhI (Serratia fonticola, UniProt Q9RMI1); activity class; concentration not given): inactive

C[N+]1(C)CCN(c2ccc(Cl)cc2)CC1.[I-]
response relative to ACh (Nicotinic acetylcholine receptor alpha1/beta1/epsilon/delta (Mus musculus, UniProt P02716+P04756+P09690+P20782); peak current, agonist, two-electrode voltage clamp; Xenopus oocytes; 30 µM; baseline: ACh 30 µM): 50%

C[C@@H](NC(=O)[C@@H](N)Cc1ccc(O)cc1)C(=O)NCC(=O)N(C)[C@@H](Cc1ccccc1)C(=O)NCCO
GTPγS binding (Mu-type opioid receptor (Oprm1, Mus musculus, UniProt P42866); agonist; mouse spinal cord membranes; 178 nM; baseline: basal binding): -0.57% and 1.56% and -3.94% and 1.53%

O=C(O)COP(=O)(O)O
Ki ratio (TPI1 (Saccharomyces cerevisiae, UniProt P00942, S211A); enzyme activity, competitive inhibitor, GPDH/NADH-coupled; pH 5.7, 25 °C, ionic strength 0.1 NaCl, together with: glyceraldehyde 3-phosphate substrate; baseline: mutant over wild type): 211

COc1ccc(F)cc1C(=O)NCc1ccc(-c2nn([C@@H](C)C(F)(F)F)c(N)c2C(N)=O)cc1
residence time (Tyrosine-protein kinase BTK (BTK, Homo sapiens, UniProt Q06187); binding): 96 min

COc1ccc(N2C(=O)N(c3c(C)cccc3Cl)Cc3cnc(Nc4ccc(C5CCN(C)CC5)cc4OC)nc32)nc1
inhibition (MAP/microtubule affinity-regulating kinase 3 (MARK3, Homo sapiens, UniProt P27448); kinase activity; 0.5 µM): 32%

C[C@H]1CN(c2n[nH]c3nc(N[C@H]4CC[C@H](NS(=O)(=O)CCC(F)(F)F)CC4)ncc23)CCO1
remaining binding (Nuclear cap-binding protein subunit 1 (Homo sapiens, UniProt Q09161); Kinobeads competition, item: NCBP1; 0.16 µM, unit not given; baseline: vehicle): 0.94

C[n+]1cn([C@@H]2O[C@H](COP(=O)([O-])OP(=O)(O)OP(=O)(O)OC[C@H]3O[C@@H](n4cnc5c(=O)[nH]c(N)nc54)[C@H](O)[C@@H]3O)[C@@H](O)[C@H]2O)c2nc(N)[nH]c(=O)c21
stoichiometry first site (m7GpppX diphosphatase (DCS1, Saccharomyces cerevisiae, UniProt Q06151, H268N/K126A); binding, ITC): 1.07

Clc1ccc(COc2ccccc2CNCc2cccnc2)cc1
highest concentration without inhibition (aacA-aphD, AAC(6')-Ie domain (Staphylococcus aureus, UniProt P0A0C1); neomycin acetylation, inhibitor; together with: neomycin): > 200 µM

[2H]c1c([2H])c([C@]2([2H])CCCN2C(=O)C(C)(C)Oc2ccc3cn[nH]c3c2)c([2H])c([2H])c1C([2H])([2H])[2H]
remaining binding (Activin receptor type-2B (ACVR2B, Homo sapiens, UniProt Q13705); KINOMEscan; 1 µM; baseline: DMSO control): 83%

CN(C(=O)n1cnc(-c2ccc[n+]([O-])c2)c1)C1CCCCC1
inhibition (C-C chemokine receptor type 1 (CCR1, Homo sapiens, UniProt P32246); radioligand binding, inhibitor; 10 µM): -3%

COc1cc(N)c(Cl)cc1C(=O)NC1CN2CCC1CC2 (stereo not shown)
log2 fold change (Probable G-protein coupled receptor 160 (GPR160, Homo sapiens, UniProt Q9UJ42); β-arrestin recruitment, TANGO luminescence, item: GPR160; concentration not given; baseline: basal luminescence): 0.113

O=C(Nc1cnccc1Cl)N1CCN(Cc2ccc3c(c2)OC(F)(F)O3)CC1
inhibition (Prostaglandin E2 receptor EP2 subtype (PTGER2, Homo sapiens, UniProt P43116); radioligand binding, inhibitor; 10 µM, human, together with: [3H]prostaglandin E2): -3%

CC[C@H](C)[C@H](NC(C)=O)C(=O)N[C@@H](CCC(=O)O)C(=O)N[C@H](C(=O)N[C@H](C=O)CC(=O)O)[C@@H](C)O
Hill slope (Caspase-4 (Casp4, Mus musculus, UniProt P70343)): -1.01

C#CCN1C(=O)C2(C(C#N)=C(N)OC(C)=C2C(=O)OCCOC)c2ccccc21 (stereo not shown)
labelling (Ubiquitin carboxyl-terminal hydrolase isozyme L1 (UCHL1, Homo sapiens, UniProt P09936); covalent, intact protein LC-MS; 12.5 µM): 14.3%

Excerpt of the above:
COc1ccc(N2C(=O)N(c3c(C)cccc3Cl)Cc3cnc(Nc4ccc(C5CCN(C)CC5)cc4OC)nc32)nc1
inhibition (MAP/microtubule affinity-regulating kinase 3 (MARK3, Homo sapiens, UniProt P27448); kinase activity; 0.5 µM): 32%

C[C@H]1CN(c2n[nH]c3nc(N[C@H]4CC[C@H](NS(=O)(=O)CCC(F)(F)F)CC4)ncc23)CCO1
remaining binding (Nuclear cap-binding protein subunit 1 (Homo sapiens, UniProt Q09161); Kinobeads competition, item: NCBP1; 0.16 µM, unit not given; baseline: vehicle): 0.94
